# Assay results collected from several papers.
# Lines come from different studies, so protocols differ. Values joined by “and” are separate records of one study, mostly repeats; a detail may differ. ± gives the spread as reported.
SMILES,cell line,assay,conditions,how to read,quantity,value
CC(C)(C)C(=O)OCOP(=O)(OCOC(=O)C(C)(C)C)C1CCCN(O)C1=O (stereo not shown),HCT-15,,,,log TGI,-4.83 log M
O=C(C[Se]C(=O)c1ccco1)Nc1cccc(C(F)(F)F)c1,NCI60 breast subpanel,NCI60 five-dose screen,,,CC50,62.6 µM
Cc1cc(-c2ccc(S(=O)(=O)C3CC(C(=O)NC4(C#N)CC4)N(C(=O)C4(C(F)(F)F)CC4)C3)c(C(F)(F)F)c2)ccn1 (stereo not shown),MDA-MB-231,annexin V/7-AAD flow cytometry,"concentration not given, with: ionizing radiation 10 Gy",,apoptotic cells,increased
CC1OC2OC3C4=C(OC3(C)C12O)C(=O)c1c(O)cccc1C4=O (stereo not shown),MDA-MB-231 and Vero,MTT,,relative to: CC50 Vero over EC50 MDA-MB-231,selectivity index,3.73
NC(=O)N/N=C/c1ccc(OCc2ccccc2)cc1,IMR-32,measured: GPX3,"50 µg/mL, 24 h",higher = more activity,glutathione peroxidase activity (OD450),0.075 a.u.
O=C(C[Se]C(=O)c1ccccc1Nc1ccccc1)Nc1cccc(C(F)(F)F)c1,NCI60 breast subpanel,NCI60 five-dose screen,,,CC50,11 µM
CSCC[C@H](NC(=O)[C@@H](NC(=O)[C@H](CCC(N)=O)NC(=O)[C@H](CO)NC(=O)[C@@H](N)C(C)C)[C@@H](C)O)C(=O)N[C@@H](CCCNC(=N)N)C(=O)N[C@@H](CCC(N)=O)C(=O)N[C@H](C(=O)N[C@@H](C)C(=O)N[C@H](C(=O)N1CCC[C@H]1C(=O)N[C@@H](CC(C)C)C(=O)N[C@@H](CC(C)C)C(=O)N[C@@H](Cc1c[nH]c2ccccc12)C(=O)N[C@@H](Cc1ccccc1)C(=O)N[C@@H](Cc1c[nH]c2ccccc12)C(=O)N[C@H](C(=O)NCC(=O)N[C@@H](CO)C(=O)N[C@@H](CC(C)C)C(=O)NCCOCCOCCOCCOCCOCCOCCOCCOCCOCCOCCOCCOCCC(=O)N[C@@H](CS)C(N)=O)[C@@H](C)O)C(C)C)[C@@H](C)O,BEAS-2B bronchial epithelial,"cell binding, phage binding, measured: output/input phage","10 min, 37 °C",relative to: control phage,selectivity ratio,4.2 ± 0.4
O=C1C=CC(=O)c2ccccc21,HepG2,MTT,,relative to: IC50 MRC-5 over IC50 HepG2,selectivity index,1.14
COc1ccccc1-c1ccncc1C(=O)Nc1nnc(OCc2ccc(Cl)cc2)s1,DLD-1 BRCA2-/-,,"2 µM, single replicate",relative to: untreated,colony survival,35.2% and 30.3% and 28.4%
CC(=O)NCSC[C@H](NC(=O)[C@@H]1CCCN1C(=O)[C@H](C)NC(=O)[C@@H](NC(=O)CNC(=O)[C@@H](NC(=O)[C@H](Cc1c[nH]c2ccccc12)NC(=O)[C@H](C)NC(=O)CNC(=O)[C@H](CO)NC(=O)[C@H](C)NC(=O)[C@@H]1CCCN1C(=O)[C@H](Cc1c[nH]c2ccccc12)NC(=O)[C@H](C)NC(=O)[C@H](C)NC(=O)[C@@H](N)Cc1ccc(O)cc1)[C@@H](C)O)[C@@H](C)O)C(=O)N[C@@H](CO)C(=O)N[C@@H](C)C(=O)NCC(=O)N[C@H](C(=O)NCCOCCOCCOCCOCCOCCOCCOCCOCCOCCOCCOCCOCCC(=O)N[C@@H](CS)C(N)=O)[C@@H](C)O,HCC827,phage binding,,relative to: targeting over control phage,selectivity ratio,2.2 ± 1.4

# Repeated from above:
SMILES,cell line,assay,conditions,how to read,quantity,value
O=C(C[Se]C(=O)c1ccccc1Nc1ccccc1)Nc1cccc(C(F)(F)F)c1,NCI60 breast subpanel,NCI60 five-dose screen,,,CC50,11 µM
